Results from different studies.
Every numbered part comes from another study and shows a few of its results, in no order.
Sequence of UniProt Q96PN8 (whole entry, looked up): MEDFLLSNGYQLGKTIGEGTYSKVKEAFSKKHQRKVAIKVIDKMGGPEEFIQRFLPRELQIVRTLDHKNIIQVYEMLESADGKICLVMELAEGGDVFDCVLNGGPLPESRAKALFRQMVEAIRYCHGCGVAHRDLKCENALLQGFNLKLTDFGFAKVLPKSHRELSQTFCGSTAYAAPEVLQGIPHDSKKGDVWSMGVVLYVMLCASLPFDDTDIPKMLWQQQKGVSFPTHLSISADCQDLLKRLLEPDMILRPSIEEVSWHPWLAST
Sequence of UniProt P00519 (whole entry, unmodified, looked up): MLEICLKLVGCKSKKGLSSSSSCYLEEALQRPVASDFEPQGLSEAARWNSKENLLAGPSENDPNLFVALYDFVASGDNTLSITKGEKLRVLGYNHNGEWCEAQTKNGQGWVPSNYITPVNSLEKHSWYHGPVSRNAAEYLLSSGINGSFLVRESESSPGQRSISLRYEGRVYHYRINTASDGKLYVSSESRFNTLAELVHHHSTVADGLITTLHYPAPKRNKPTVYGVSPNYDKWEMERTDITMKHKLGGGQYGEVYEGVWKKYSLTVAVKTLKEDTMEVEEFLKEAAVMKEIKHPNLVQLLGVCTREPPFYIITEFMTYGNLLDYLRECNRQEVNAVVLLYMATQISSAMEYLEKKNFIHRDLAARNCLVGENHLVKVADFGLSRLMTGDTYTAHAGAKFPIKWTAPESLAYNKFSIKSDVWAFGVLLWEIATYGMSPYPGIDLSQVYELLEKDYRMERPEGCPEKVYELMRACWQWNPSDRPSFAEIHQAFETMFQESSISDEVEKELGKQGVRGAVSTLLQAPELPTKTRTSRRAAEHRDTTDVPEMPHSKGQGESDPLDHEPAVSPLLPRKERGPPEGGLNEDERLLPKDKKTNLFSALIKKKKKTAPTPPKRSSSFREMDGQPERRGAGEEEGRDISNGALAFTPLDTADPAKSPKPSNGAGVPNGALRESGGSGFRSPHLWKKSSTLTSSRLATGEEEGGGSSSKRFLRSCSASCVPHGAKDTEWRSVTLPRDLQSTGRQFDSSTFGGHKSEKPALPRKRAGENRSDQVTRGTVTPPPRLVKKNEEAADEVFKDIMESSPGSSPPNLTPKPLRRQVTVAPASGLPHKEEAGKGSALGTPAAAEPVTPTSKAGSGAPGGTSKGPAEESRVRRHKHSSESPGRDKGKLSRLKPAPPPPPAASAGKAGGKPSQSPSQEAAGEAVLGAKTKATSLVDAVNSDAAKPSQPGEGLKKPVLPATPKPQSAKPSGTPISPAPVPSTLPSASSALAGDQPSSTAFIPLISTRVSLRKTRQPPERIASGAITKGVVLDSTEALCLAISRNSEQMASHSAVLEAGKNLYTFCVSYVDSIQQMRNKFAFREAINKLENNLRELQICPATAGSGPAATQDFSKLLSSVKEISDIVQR
Sequence of UniProt P31152 (whole entry, looked up): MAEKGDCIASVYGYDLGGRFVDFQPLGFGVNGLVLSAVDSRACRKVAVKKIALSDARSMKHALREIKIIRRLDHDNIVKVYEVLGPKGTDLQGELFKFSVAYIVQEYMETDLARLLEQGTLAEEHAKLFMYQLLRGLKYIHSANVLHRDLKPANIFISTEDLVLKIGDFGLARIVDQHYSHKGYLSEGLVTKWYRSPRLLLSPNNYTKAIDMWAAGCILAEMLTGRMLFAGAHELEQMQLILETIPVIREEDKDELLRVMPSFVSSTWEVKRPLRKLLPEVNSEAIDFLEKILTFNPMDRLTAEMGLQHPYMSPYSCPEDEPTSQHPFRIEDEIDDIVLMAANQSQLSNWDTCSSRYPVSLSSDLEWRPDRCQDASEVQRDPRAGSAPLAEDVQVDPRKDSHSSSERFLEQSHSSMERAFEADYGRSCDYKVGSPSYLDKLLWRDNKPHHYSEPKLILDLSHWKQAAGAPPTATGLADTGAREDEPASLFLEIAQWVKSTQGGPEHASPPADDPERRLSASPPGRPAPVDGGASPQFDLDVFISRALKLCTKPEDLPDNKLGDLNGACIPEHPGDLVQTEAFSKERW
Sequence of UniProt P25098 (whole entry, looked up): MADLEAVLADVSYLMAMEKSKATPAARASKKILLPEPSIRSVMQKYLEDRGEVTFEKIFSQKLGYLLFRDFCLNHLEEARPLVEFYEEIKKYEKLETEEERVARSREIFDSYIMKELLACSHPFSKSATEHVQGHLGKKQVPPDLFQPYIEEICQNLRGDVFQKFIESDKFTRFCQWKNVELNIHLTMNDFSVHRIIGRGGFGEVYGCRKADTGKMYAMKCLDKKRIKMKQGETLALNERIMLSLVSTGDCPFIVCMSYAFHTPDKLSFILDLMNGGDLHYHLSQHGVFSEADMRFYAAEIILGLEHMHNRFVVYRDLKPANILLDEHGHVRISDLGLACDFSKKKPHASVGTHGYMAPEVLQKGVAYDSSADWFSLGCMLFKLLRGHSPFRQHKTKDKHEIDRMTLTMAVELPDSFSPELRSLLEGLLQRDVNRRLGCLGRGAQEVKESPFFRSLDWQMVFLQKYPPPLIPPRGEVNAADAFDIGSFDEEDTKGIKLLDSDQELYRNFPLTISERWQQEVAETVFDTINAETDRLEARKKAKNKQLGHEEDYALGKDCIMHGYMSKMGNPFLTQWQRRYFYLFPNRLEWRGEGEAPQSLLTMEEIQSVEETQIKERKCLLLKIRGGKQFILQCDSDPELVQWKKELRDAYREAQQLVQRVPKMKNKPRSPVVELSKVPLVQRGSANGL
Sequence of UniProt P41240 (whole entry, looked up): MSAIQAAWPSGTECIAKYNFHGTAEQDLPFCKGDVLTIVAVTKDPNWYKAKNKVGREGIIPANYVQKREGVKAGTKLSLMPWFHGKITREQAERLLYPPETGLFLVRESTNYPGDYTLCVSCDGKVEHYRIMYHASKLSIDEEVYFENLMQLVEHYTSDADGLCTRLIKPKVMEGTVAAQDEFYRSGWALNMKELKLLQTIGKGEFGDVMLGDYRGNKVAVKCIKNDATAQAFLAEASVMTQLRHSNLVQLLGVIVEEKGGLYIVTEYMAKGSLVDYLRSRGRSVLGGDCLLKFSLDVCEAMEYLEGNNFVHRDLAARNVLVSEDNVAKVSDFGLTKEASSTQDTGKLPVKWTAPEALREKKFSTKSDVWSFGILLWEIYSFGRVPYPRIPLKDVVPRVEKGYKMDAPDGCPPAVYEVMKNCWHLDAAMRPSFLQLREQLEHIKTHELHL
Sequence of UniProt O94806 (whole entry, looked up): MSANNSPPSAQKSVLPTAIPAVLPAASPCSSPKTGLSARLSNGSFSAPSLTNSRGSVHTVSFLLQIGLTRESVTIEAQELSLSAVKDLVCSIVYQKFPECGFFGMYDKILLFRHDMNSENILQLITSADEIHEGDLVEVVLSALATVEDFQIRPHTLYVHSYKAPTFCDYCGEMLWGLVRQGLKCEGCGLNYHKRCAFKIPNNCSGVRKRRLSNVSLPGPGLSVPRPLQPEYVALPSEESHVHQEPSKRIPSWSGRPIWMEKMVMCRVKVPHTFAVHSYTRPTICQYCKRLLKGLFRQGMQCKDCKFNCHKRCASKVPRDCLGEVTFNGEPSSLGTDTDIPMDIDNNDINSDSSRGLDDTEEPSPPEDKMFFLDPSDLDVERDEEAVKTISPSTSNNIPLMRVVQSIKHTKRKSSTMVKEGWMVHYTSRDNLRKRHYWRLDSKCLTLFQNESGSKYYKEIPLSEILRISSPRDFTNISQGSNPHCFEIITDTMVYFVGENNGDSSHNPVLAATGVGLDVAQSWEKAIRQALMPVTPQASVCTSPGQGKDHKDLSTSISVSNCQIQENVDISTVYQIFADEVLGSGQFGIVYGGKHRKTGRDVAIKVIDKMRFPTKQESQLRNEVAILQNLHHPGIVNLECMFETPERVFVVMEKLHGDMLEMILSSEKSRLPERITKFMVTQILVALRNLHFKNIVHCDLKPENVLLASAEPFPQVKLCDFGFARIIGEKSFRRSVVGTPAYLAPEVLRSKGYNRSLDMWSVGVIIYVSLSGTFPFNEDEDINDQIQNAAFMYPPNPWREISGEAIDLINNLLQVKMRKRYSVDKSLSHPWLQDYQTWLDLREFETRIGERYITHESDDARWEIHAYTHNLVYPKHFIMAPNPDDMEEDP

Set 1
SMILES: O=C(N[C@H]1CCCCC/C=C\C2C[C@@]2(C(=O)O)NC(=O)[C@@H]2C[C@@H](Oc3ccncc3)CN2C1=O)OC1CCCC1 (stereo partly drawn)
Technique: competition with immobilised ligand
Concentration: 1 µM
target	observed	remaining binding [%]
Mitogen-activated protein kinase 4 (MAPK4, Homo sapiens, UniProt P31152)	binding	100
Tyrosine-protein kinase ABL1, phosphorylated (ABL1, Homo sapiens, UniProt P00519, E255K)	binding	80
Serine/threonine-protein kinase tousled-like 1 (TLK1, Homo sapiens, UniProt Q9UKI8)	cell-free assay	82
Testis-specific serine/threonine-protein kinase 3 (TSSK3, Homo sapiens, UniProt Q96PN8)	binding	100
Serine/threonine-protein kinase 35 (STK35, Homo sapiens, UniProt Q8TDR2)	binding	100
Tyrosine-protein kinase CSK (CSK, Homo sapiens, UniProt P41240)	cell-free assay	96
Serine/threonine-protein kinase D3 (PRKD3, Homo sapiens, UniProt O94806)	binding	82
Serine/threonine-protein kinase WNK4 (WNK4, Homo sapiens, UniProt Q96J92)	binding	100
Beta-adrenergic receptor kinase 1 (GRK2, Homo sapiens, UniProt P25098)	binding	51
Ephrin type-A receptor 3 (EPHA3, Homo sapiens, UniProt P29320)	cell-free assay	86
Fibroblast growth factor receptor 3 (FGFR3, Homo sapiens, UniProt P22607, G697C)	cell-free assay	100

Set 2
Target: Sal-like protein 4, full length isoform A (SALL4, Homo sapiens, UniProt Q9UJQ4, residues 1-1053)
Sequence of UniProt Q9UJQ4 (whole entry, looked up): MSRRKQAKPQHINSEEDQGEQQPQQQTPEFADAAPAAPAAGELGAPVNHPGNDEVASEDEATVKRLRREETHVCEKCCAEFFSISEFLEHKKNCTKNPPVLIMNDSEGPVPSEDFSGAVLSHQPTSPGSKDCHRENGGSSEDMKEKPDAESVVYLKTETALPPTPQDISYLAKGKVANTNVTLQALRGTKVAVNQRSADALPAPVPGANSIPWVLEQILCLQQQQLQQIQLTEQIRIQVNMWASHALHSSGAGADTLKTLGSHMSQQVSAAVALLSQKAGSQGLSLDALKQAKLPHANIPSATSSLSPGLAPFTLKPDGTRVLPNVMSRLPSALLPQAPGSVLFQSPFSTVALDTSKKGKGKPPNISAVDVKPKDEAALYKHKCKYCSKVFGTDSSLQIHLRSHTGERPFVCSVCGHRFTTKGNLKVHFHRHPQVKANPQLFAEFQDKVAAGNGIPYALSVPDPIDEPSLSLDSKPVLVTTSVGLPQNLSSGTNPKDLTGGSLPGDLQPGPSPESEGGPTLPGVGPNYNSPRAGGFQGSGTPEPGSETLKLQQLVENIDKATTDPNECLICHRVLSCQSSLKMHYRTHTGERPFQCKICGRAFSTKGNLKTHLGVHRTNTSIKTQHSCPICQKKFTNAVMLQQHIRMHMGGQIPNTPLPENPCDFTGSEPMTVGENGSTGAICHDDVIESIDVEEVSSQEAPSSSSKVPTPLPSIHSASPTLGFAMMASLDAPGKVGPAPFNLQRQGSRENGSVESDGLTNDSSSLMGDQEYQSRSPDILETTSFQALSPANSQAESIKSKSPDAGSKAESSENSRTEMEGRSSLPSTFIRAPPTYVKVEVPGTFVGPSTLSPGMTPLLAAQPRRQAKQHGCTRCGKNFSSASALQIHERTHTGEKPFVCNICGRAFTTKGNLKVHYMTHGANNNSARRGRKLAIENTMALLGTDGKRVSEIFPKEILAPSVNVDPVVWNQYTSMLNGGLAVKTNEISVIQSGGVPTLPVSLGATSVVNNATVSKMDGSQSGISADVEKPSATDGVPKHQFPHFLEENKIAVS
Technique: universal PBM
Molecule type: double-stranded DNA, one strand shown
Medium: in vitro
Concentration: 600 nM
Setting: 8-mer, flanks averaged, mean of replicates
Reading: higher = stronger binding
Sequence	E-score
ATTACTTA	0.303
AGATACGC	-0.0567
TACAGAGA	0.07
AAAATGAA	0.361
ATAGTTAC	0.264
TCATGCCA	0.12
CATAGTGA	0.127
GCTACCTA	0.043

Set 3
Target: Phosphate system positive regulatory protein PHO4, full length, GST-tagged (PHO4, Saccharomyces cerevisiae, UniProt P07270, residues 1-312)
Technique: competition protein-binding microarray
Molecule type: double-stranded DNA, one strand shown
Medium: in vitro
Concentration: 2 µM
Setting: whole 60-bp probe, lowest competitor level
Together with: Cbf1 competitor, 0.05 µM
Reading: higher = stronger binding
Constant ends, left off below: … GTCTTGATTCGCTTGACGCTGCTG
Residues (chain): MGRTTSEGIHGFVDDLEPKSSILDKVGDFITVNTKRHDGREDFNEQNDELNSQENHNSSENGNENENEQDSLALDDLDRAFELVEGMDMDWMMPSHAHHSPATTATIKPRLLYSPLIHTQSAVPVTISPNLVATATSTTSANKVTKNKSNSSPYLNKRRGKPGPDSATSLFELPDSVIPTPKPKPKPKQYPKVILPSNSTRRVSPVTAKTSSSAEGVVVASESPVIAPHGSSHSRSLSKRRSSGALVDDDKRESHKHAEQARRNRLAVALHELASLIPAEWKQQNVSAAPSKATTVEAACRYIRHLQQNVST
Sequence	fluorescence intensity
CTTCAGTGTTTTTAGCACGTTTTAGAGCAGCAGGAT	15300 a.u.
TAGGGGCTCTCACAAAACGGGCACTACCTTTTGTTT	4050 a.u.
CCGACGTCGGAGAGGCAGGTGATGTTCGGCTCGGCC	3760 a.u.
CATACCCAACCTTGTGTCGTGGGTGAAGATATTTGT	7400 a.u.
GTCTTGTCTCATTGTCACTATACTTTCCCCACTTCA	4220 a.u.
ATCCTCCTTAGTGGGCATGTGCTCTAGGAATGCAGA	11700 a.u.
TATTCATTGCAGTTACACGTGAAGGCTAAACTTTAT	12000 a.u.
TCGAAGAAACGAATTCACCTGATTGCAGCTGTAAAA	2970 a.u.

Single results of other studies
Host: human
Medium: microsomes or S9
Concentration: 2 µM
Time: 0.5 h
SMILES	remaining compound [%]
CC(=O)c1c(-c2cccc3ccccc23)nc2n(CCN3CCCCC3)c3ccccc3n12	0.106
O=c1[nH]ncc(Nc2ccc3[nH]ncc3c2)c1Br	56.1
c1ccc(-c2csc3nc(-c4cccnc4)nc(Oc4ccc5ccncc5c4)c23)cc1	59.4

For quick reference, copied from above (set 2):
Sequence	E-score
AGATACGC	-0.0567
TACAGAGA	0.07
CATAGTGA	0.127
ATTACTTA	0.303
GCTACCTA	0.043
